Measurements pooled from the literature.
Each line is one published result; not all experiments were run side by side. “And” joins repeats or separate records; there may be more than shown.

NC(=O)c1cnc2[nH]ccc2c1N[C@@H]1[C@@H]2CC3C[C@H]1C[C@@](O)(C3)C2  percent change (CD4+ effector T cells, flow cytometry; Caucasian humans, peripheral blood; 60 mg single dose; reference: baseline): 0.03%
CC1=C(Cn2ccnn2)C(=O)c2ccccc2C1=O  killing (Schistosoma mansoni; adult worms; 10 µM, 72 h): 43.8%
COc1ccc(Nc2cnnc3ccc(-c4cnc(N5CCCN(C)CC5)nc4)cc23)cc1  phenotypic severity score (Schistosoma mansoni; adult worms; 10 µM, 5 h; direction not given): 0
CC(C)NCC(O)c1ccc(O)c(O)c1 (stereo not drawn)  sarcomere length (ventricular cardiomyocytes, C57BL/6 mouse; dose not given, 0.324 s): 1.72 µm
CN1CCN(S(=O)(=O)c2ccc(-c3ccc4nncc(Nc5cnccn5)c4c3)cc2)CC1  phenotypic severity score (Schistosoma mansoni; adult worms; 10 µM, 1 h; direction not given): 0
CC1=C(Cc2cn(CCN3CCOCC3)nn2)C(=O)c2ccccc2C1=O  killing (Schistosoma mansoni; adult worms; 25 µM, 48 h): 43.5%
CCCCc1ncc(/C=C(\Cc2cccs2)C(=O)O)n1Cc1ccc(C(=O)O)cc1  inhibition (Nedd8-cullin1 interaction; neddylation, AlphaScreen; 100 µM): 79.4%
Cn1cc(-c2ccc(-c3cncc(Cl)c3N3CCC4(CCNC4=O)CC3)cc2)cn1  log2 fold change (COLO 205; gene expression, microarray, measured: FAS mRNA; concentration not given, 6 h; reference: untreated cells): 4.15
COc1ccc(Nc2cnnc3ccc(-c4cnc(N5CCCN(C)CC5)nc4)cc23)cc1Cl  phenotypic severity score (Schistosoma mansoni; adult worms; 10 µM, 24 h; direction not given): 2
CC1=C(Cn2ccnc2[N+](=O)[O-])C(=O)c2ccccc2C1=O  killing (Schistosoma mansoni; adult worms; 10 µM, 48 h): 43.5%
COc1cnc2cccc(N3CCc4c(cc(Cn5ccnc5C)cc4-c4cn(C)nc4C(F)(F)F)C3=O)c2c1  EC50 (COLO 201; cell growth, inhibitor; 120 h): 0.772 µM
O=c1c(-c2ccc(O)cc2)coc2c([C@@H]3O[C@H](CO)[C@@H](O)[C@H](O)[C@H]3O)c(O)ccc12  inhibition (Nedd8-cullin1 interaction; neddylation, AlphaScreen; 100 µM): 14.3%
N#Cc1ccn2c(-c3ccncc3)c(-c3ccc(F)cc3)nc2c1  log2 fold change (kinase binding, competitor, MIB/MS competition, measured: YPK1; Candida albicans cell lysate; 1 µM; reference: DMSO): 0.148
O=C(/C=C/C=C/C=C/C1CCCCC1)NC1=C[C@@](O)(/C=C/C=C/C=C/C(=O)NC2=C(O)CCC2=O)[C@@H]2O[C@@H]2C1=O  GI50 (Calu-6; cell growth, CellTiter-Glo; 78 h): 18.9 µM
COc1ccc(Nc2cnnc3ccc(-c4cnc(N5CCN(C)CC5)nc4)cc23)cc1Cl  phenotypic severity score (Schistosoma mansoni; adult worms; 10 µM, 5 h; direction not given): 0
C[C@H](Oc1ccc(Br)cc1-c1ccon1)C(=O)O  difference from placebo (last response peak; human, tibialis anterior muscle; 50 mg, 30 Hz, single ascending dose): -4.22%
c1ccc(CC2=NCCN2)cc1  inhibition (Nedd8-cullin1 interaction; neddylation, AlphaScreen; 100 µM): 34.9% and 33.3%
COc1ccc(Nc2cnnc3ccc(-c4cnc(N5CCN(C)CC5)nc4)cc23)cc1  phenotypic severity score (Schistosoma mansoni; adult worms; 10 µM, 24 h; direction not given): 1
CC1=C(Cc2cn(CC#N)nn2)C(=O)c2ccccc2C1=O  killing (Schistosoma mansoni; adult worms; 10 µM, 24 h): 38%
COc1ccc(Nc2cnnc3ccc(-c4ccc(N5CCN(C)CC5)cc4)cc23)cc1  phenotypic severity score (Schistosoma mansoni; adult worms; 10 µM, 24 h; direction not given): 4
CC1=C(Cn2cc(CBr)nn2)C(=O)c2ccccc2C1=O  killing (Schistosoma mansoni; adult worms; 10 µM, 24 h): 38.4%
O=C(NC[C@H]1CN(c2ccc(N3CCOCC3=O)cc2)C(=O)O1)c1ccc(Cl)s1  inhibition (Nedd8-cullin1 interaction; neddylation, AlphaScreen; 100 µM): -31.4%
Cc1csc(-c2nnc(Nc3ccc(Oc4ncccc4-c4ccnc(N)n4)cc3)c3ccccc23)c1  IC50 (HD-MB03; cell growth; 168 h, single agent): 0.00147 µM
CCn1cc(-c2cc(Cn3ccnc3)cc3c2CCN([C@H](c2cc(OC)ccn2)C2CC2)C3=O)c(C(F)(F)F)n1  EC50 (COLO 201; cell growth, inhibitor; 120 h): > 30 µM
[Ca+2]  desensitization time constant (human TRPA1 W1103A; ion current, two-electrode voltage clamp; Xenopus oocytes; -80 mV, together with: AITC, EGTA-AM 0.5 mM 20 min): 106 s and 73.1 s and 255 s and 128 s and 115 s and 84.5 s and 113 s
OC(CCN1CCCCC1)(c1ccccc1)C1CC2C=CC1C2 (stereo not drawn)  EEG Alpha2-power Pz-O1 (resting-state EEG; healthy elderly humans; oral, 2 mg, eyes closed, LS mean): 4.8 µV²
CN(C)c1ccc(O)c2c1C[C@H]1C[C@H]3[C@H](N(C)C)C(O)=C(C(N)=O)C(=O)[C@@]3(O)C(O)=C1C2=O  median microfilaria count (Brugia malayi; SCID mouse, peritoneal cavity; dose not given, 6 weeks post-treatment, dosing x28d): 0 microfilariae per mouse
Cc1nc(Nc2n[nH]c3c2CN(C(=O)N[C@H](CN(C)C)c2ccccc2)C3(C)C)c2sccc2n1  IC50 (HD-MB03; cell growth; DMSO): 0.00449 µM
CC(=O)CCCCn1c(=O)c2c(ncn2C)n(C)c1=O  inhibition (Nedd8-cullin1 interaction; neddylation, AlphaScreen; 100 µM): -12.4%
CN1CCN(c2ncc(-c3ccc4nncc(Nc5ncccn5)c4c3)cn2)CC1  phenotypic severity score (Schistosoma mansoni; adult worms; 10 µM, 5 h; direction not given): 0
O=C(O)CNC(=O)Cc1ccccc1  sarcomere length (ventricular cardiomyocytes, C57BL/6 mouse; dose not given, 0.596 s): 1.66 µm
CC1=C(Cc2cn(CCN3CCN(C(=O)OC(C)(C)C)CC3)nn2)C(=O)c2ccccc2C1=O  killing (Schistosoma mansoni; adult worms; 25 µM, 24 h): 33.3%
CC(C)n1c(/C=C/C(O)CC(O)CC(=O)O)c(-c2ccc(F)cc2)c2ccccc21 (stereo not drawn)  inhibition (Nedd8-cullin1 interaction; neddylation, AlphaScreen; 100 µM): 21.4%
COc1ccc(Nc2cnnc3cc(-c4ccc(N5CCN(C)CC5)cc4)ccc23)cc1  phenotypic severity score (Schistosoma mansoni; adult worms; 10 µM, 48 h; direction not given): 0
COc1cc2c(cc1OC)CC(=O)N(CCCN(C)C[C@H]1Cc3cc(OC)c(OC)cc31)CC2.Cl  inhibition (Nedd8-cullin1 interaction; neddylation, AlphaScreen; 100 µM): -12.2%
CC1=C(Cc2cn(CCN3CCNCC3)nn2)C(=O)c2ccccc2C1=O  killing (Schistosoma mansoni; adult worms; 25 µM, 72 h): 50%
CCn1cc(-c2cc(Cn3ccoc3=N)cc3c2CCN([C@@H](C)c2cc(OC)ccn2)C3=O)c(C(F)(F)F)n1  EC50 (Toledo; cell growth; 120 h): 0.188 µM
O=C(O)C[C@H](O)C[C@H](O)/C=C/c1c(C2CC2)nc2ccccc2c1-c1ccc(F)cc1  inhibition (Nedd8-cullin1 interaction; neddylation, AlphaScreen; 100 µM): 0.5%
CC1=C(Cc2cn(CCO)nn2)C(=O)c2ccccc2C1=O  killing (Schistosoma mansoni; adult worms; 25 µM, 72 h): 66.7%

A few entries again:
COc1ccc(Nc2cnnc3ccc(-c4cnc(N5CCN(C)CC5)nc4)cc23)cc1  phenotypic severity score (Schistosoma mansoni; adult worms; 10 µM, 24 h; direction not given): 1
OC(CCN1CCCCC1)(c1ccccc1)C1CC2C=CC1C2 (stereo not drawn)  EEG Alpha2-power Pz-O1 (resting-state EEG; healthy elderly humans; oral, 2 mg, eyes closed, LS mean): 4.8 µV²
COc1ccc(Nc2cnnc3ccc(-c4cnc(N5CCCN(C)CC5)nc4)cc23)cc1  phenotypic severity score (Schistosoma mansoni; adult worms; 10 µM, 5 h; direction not given): 0
CC1=C(Cc2cn(CCO)nn2)C(=O)c2ccccc2C1=O  killing (Schistosoma mansoni; adult worms; 25 µM, 72 h): 66.7%
